Measured values pooled from the literature.
Each numbered part is a random draw from the data of one study; scales do not carry over between parts. Positions count from the first letter of the parent shown.

Set 1
Target: CCNB2, cyclin fold, Cln2 fusion (human)
Technique: yeast growth competition, sequencing
Matrix: yeast
Setting: weak parent motif
Baseline: not given
Direction: higher = stronger binding
Quantity: normalised enrichment score
Starting sequence: PPP1R3F docking peptide (human); VAPRRVLFADEAL; partner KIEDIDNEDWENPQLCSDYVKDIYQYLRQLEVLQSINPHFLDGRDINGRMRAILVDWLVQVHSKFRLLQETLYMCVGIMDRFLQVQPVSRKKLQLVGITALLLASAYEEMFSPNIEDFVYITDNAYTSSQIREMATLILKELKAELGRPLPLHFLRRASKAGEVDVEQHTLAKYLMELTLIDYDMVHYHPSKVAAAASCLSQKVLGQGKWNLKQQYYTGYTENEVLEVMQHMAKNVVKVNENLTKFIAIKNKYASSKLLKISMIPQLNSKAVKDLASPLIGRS
VAPRRVLLADEAL [F8L]: 0.633
VAPARVLFADEAL [R4A]: 0.276
VAPRRVAFADEAL [L7A]: 0.214
VAPRRVLFADAAL [E11A]: 0.363
VAPRRVLFADEAA [L13A]: -0.37
VAPRAVLFADEAL [R5A]: 0.236

Set 2
Target: Histone acetyltransferase KAT6A, winged helix 2, GST fusion (KAT6A, Homo sapiens, UniProt Q92794, residues 85-181)
Technique: protein binding microarray
Form: double-stranded DNA, one strand shown
Matrix: in vitro
Tested at: not given
Setting: 8-mer, flanks averaged, mean of 2 arrays, mostly near background
Baseline: not given
Direction: higher = stronger binding
Quantity: E-score
Construct (chain): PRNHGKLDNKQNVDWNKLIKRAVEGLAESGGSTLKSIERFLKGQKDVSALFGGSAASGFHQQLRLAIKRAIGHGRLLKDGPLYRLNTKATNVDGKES
TTACTCAA: 0.0391
GCGGGTGA: 0.182
CAACAGCG: -0.0962
CCCGGAGG: 0.0741
GCGCGAAC: 0.246
GAGCCTTA: -0.171
TAGTGTGA: -0.111
GAAAAAGA: 0.125
CGGGGCCA: 0.207
GCAGTGCA: 0.108
CCTTCCGA: 0.105
AATACGAT: -0.151
CTGAGACC: -0.00991
ATTCGATG: -0.0812
AAAGCGGT: 0.0353
GGTCGGTA: -0.0934
AAACCAGA: 0.105
CCCAAAGA: 0.102
ACTGATGG: -0.162
ATGATTCA: -0.087
GACAACGC: -0.147
CCCACTAG: -0.0889
AGTATCGG: -0.0508
AAGGAGGG: 0.0495
CAAGAATC: 0.0107

Set 3
Target: ABI1, truncated, D143A, DHFR fusion (Arabidopsis thaliana)
Technique: DHFR PCA, deep sequencing
Matrix: yeast
Setting: methotrexate growth selection, single substitutions
Added: (+)-ABA 58 µM
Baseline: wild-type fitted maximum
Direction: higher = stronger binding
Quantity: relative binding score
Starting sequence: PYL1, truncated, DHFR fusion (Arabidopsis thaliana); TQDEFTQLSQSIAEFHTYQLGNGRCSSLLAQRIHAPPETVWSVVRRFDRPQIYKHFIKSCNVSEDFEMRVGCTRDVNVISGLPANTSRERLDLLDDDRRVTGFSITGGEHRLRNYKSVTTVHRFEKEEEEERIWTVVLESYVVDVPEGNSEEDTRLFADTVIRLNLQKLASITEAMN
S59V: 62%
S171W: 72.5%
H110L: 0.481%
E147T: 78.8%
C25K: 3.5%
H122C: 43.7%
E64F: 76%
D96K: 16%
D3G: 74%
E129C: 90.3%

Set 4
Target: RING finger protein unkempt homolog, zinc fingers 1-6, GST-SBP tag (UNK, Homo sapiens, UniProt Q9C0B0, residues 30-357)
Technique: RNA Bind-n-Seq
Form: RNA
Matrix: in vitro
Tested at: not given
Setting: RNA with constant flanks, human and mouse sites, ends assumed
Baseline: input RNA pool
Direction: higher = stronger binding
Quantity: bound/input enrichment
Shared flanks, not repeated: GGGAGUUCUACAGUCCGACGAUC … CAACAGAGGAUUGAGCAUCA
Residues (chain): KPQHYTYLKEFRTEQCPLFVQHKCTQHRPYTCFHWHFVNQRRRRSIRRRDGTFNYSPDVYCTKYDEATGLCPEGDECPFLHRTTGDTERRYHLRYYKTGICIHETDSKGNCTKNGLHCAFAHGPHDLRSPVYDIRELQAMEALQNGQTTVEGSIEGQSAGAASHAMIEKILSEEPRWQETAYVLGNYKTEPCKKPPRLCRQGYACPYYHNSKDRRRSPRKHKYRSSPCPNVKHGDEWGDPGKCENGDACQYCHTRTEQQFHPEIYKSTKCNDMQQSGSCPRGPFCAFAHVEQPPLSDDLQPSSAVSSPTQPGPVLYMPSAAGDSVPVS
GAAGAUGGGCCUCCAGAACUCCUGUUUAUUCAUGGAGGACACACUGCUAAGAUUUCAGAUUUUAGCUGGAACCCCAAUGAGCCUUGGGUCAUUUGCUCAGUGUCUGAGGAUAACAUCAUG: 0.123 ratio
GCCCGCCUUUUCCUUUCUCACUUUGGAUUUUUAUCCUUAGAGGCAUUAAAGGAACCUGCAAAUAGUCGUCUACCUCCUCAUCUUAUUGCACUCGAUUCUACCAUACCUGGAUUUUUUGAU: 0.398 ratio
GAGCGGGGCUGUCACCUGGAGAUCACGGAGGGAAGUUCAUCCAUGAGCUCGGAUUUCCCACAUUACAACUUCAGGAUGCCUAAUAUUGGAUUCCAGAAUCUGCCUCUCAACAUAUAUAUU: 0.121 ratio
CUUCAUGUUUCUGAAAAUGUGAUAUUCACAGAUGUGAAUUCUAUACUUCGCUACUUGGCUAGAGUUGCAACUACAGCUGGGUUAUAUGGCUCUAAUCUGAUGGAACAUACUGAGAUUGAU: 0.0964 ratio
CUGCAUUAUUUGACCAGAGUUGAAGUGACAGAAUUUGAAGAUAUUAAAUCAGGUUACAGAAUAGAUUUUUAUUUUGAUGAAAAUCCUUACUUUGAAAAUAAAGUUCUCUCCAAAGAAUUU: 7.25 ratio
GGCCGCCGCUGGGGCUAAGAGCAGGGACACCGAGGGUGACUGACCGCUAGAACUCUUCCAGUCGUCCAAACAGCCAUGACCCACUUCAACAAGGGCCCUUCCUACGGGCUCUCCGCCGAA: 0.172 ratio
AGCAGUCAGCCCGCGCGCCGGCCGGCUCCGUUAUGGCGACCCGCAGCCCUGGCGUCGUGAUUAGUGAUGAUGAACCAGGUUAUGACCUUGAUUUAUUUUGCAUACCUAAUCAUUAUGCUG: 0.0899 ratio
UCAGAAAGUGCUACAUCUGUCCCACCCUCUGACACACCUUCUCUCACAUCAUCUGUUUCUUCGGUCUGUACCACAGAUAGCUCUUCACCCAUUACUACCCUGGAUAGCAUAACCACAGUU: 0.544 ratio
GAAUCCAGUGAUUUGGUACAUGUUAAAUGGGAAUUAAAAAUCCAAAGACCCUGUAAUGAAUAGUAAAGAUGAUGAUUUAUGUUGUAUGAGGAACCAAACUAUUGUAAUUUUGUACCAUAC: 0.743 ratio
CCAAGGAGGGAGUCCUACAAGUGUGGGGAAUGUGGGAAGGCCUUCAGCCAGAGAGGAAACUUCCUUUCUCAUCAGAAACAACAUACCGAAGAGAGACCCAGUGAAUCUAAGAAAACUCCC: 0.257 ratio
AAGAAGUCUCAGUAGUAAUCUUGUUCAUGUGCUUUUACAGCCAGCUACAUUUAAGAAUGUAUUAGUUACAGAAAUUAUAUGUCUGUGUAUGUGUCUCUACUCAAUAAAGUACAUGCCUCC: 6.36 ratio

Set 5
Target: Prothrombin, mature alpha-thrombin (F2, Homo sapiens, UniProt P00734)
Technique: aptamer microarray, sandwich
Form: DNA with 2'F-ANA
Matrix: in vitro
Tested at: 200 nM
Setting: whole 15-mer aptamer, many near background
Added: Cy3 exosite-II aptamer, 400 nM
Direction: higher = stronger binding
Quantity: mean fluorescence intensity
Oligonucleotide: GGTTGGTGTGGTTGG
2'F-ANA at 2 6 7 8 9 10 11 12 15: 132 a.u.
2'F-ANA at 2 3 4 9 10 11 12 14: 209 a.u.
2'F-ANA at 1 3 8 9 10 13 14 15: 58.2 a.u.
2'F-ANA at 1 4 11 12 13 14: 70.4 a.u.
2'F-ANA at 2 3 5 9 13 15: 70.1 a.u.
2'F-ANA at 2 4 7 9: 385 a.u.
2'F-ANA at 1 2 4 5 6 7 11 12 13 15: 63.1 a.u.
2'F-ANA at 3 4 5 6 8 11: 85 a.u.
2'F-ANA at 3 5 7 11 13 15: 93 a.u.
2'F-ANA at 2 4 7 8 9 10 12 13: 140 a.u.
2'F-ANA at 1 2 4 8 10 15: 65.7 a.u.
2'F-ANA at 1 7 12 15: 503 a.u.
2'F-ANA at 3 6 9 10 11 13 14 15: 334 a.u.
2'F-ANA at 4 5 6 8 11 12 14 15: 46 a.u.
2'F-ANA at 1 2 3 8 9 11 15: 237 a.u.
2'F-ANA at 2 3 4 6 8 9 11 12 13: 487 a.u.
2'F-ANA at 1 2 3 4 6 8 9 13 14 15: 59 a.u.
2'F-ANA at 1 2 6 11 12 13 15: 234 a.u.
2'F-ANA at 2 4 6 10 12 14 15: 61.1 a.u.
2'F-ANA at 1 2 3 6 7 8 9 10 11 13 15: 93.6 a.u.
2'F-ANA at 2 3 5 6 8 10 13: 52.7 a.u.
2'F-ANA at 7 9 10 12 14 15: 112 a.u.

Set 6
Target: CREBZF, bZIP domain (human)
Technique: DHFR protein complementation
Matrix: yeast
Setting: single substitutions, most at no-binding floor
Baseline: wild-type JUN-FOS pair
Direction: higher = stronger binding
Quantity: binding fitness
Starting sequence: JUN, bZIP domain (human); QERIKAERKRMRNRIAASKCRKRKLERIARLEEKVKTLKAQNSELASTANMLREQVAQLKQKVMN; partner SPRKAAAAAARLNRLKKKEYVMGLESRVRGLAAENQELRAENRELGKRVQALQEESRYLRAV
L52S: -1.51 natural log
A49V: -1.62 natural log
E44L: -1.46 natural log
V35T: -1.54 natural log
L52P: -1.55 natural log
E44M: -1.41 natural log
A46G: -1.52 natural log
A29V: -1.47 natural log
K34T: -1.51 natural log
K34D: -1.56 natural log
Q41S: -1.56 natural log

Repeated from above (set 5):
2'F-ANA at 1 2 4 5 6 7 11 12 13 15: 63.1 a.u.
2'F-ANA at 1 3 8 9 10 13 14 15: 58.2 a.u.
2'F-ANA at 1 2 6 11 12 13 15: 234 a.u.
2'F-ANA at 4 5 6 8 11 12 14 15: 46 a.u.
2'F-ANA at 1 2 3 4 6 8 9 13 14 15: 59 a.u.
2'F-ANA at 3 5 7 11 13 15: 93 a.u.
2'F-ANA at 3 6 9 10 11 13 14 15: 334 a.u.
2'F-ANA at 2 3 5 9 13 15: 70.1 a.u.
2'F-ANA at 1 7 12 15: 503 a.u.
2'F-ANA at 3 4 5 6 8 11: 85 a.u.
2'F-ANA at 2 6 7 8 9 10 11 12 15: 132 a.u.
2'F-ANA at 1 4 11 12 13 14: 70.4 a.u.
2'F-ANA at 1 2 3 8 9 11 15: 237 a.u.
